Published values gathered from unrelated publications.
Cell line: K562

`CC1(C)CCC(CN2CCN(c3ccc(C(=O)NS(=O)(=O)c4ccc(NCC5CCOCC5)c([N+](=O)[O-])c4)c(Oc4cnc5[nH]ccc5c4)c3)CC2)=C(c2ccc(Cl)cc2)C1` gave a necrotic cells of 0.2% (annexin V/PI flow cytometry, item: annexin V-/PI+; 3.2 µM, 24 h).
`CCCCN1CCN(c2ccc3nc(-c4ccc5nc(-c6cc(OC)ccc6OC)[nH]c5c4)[nH]c3c2)CC1` has a growth percent of 76.2% (SRB; 10 µM, 48 h).
`O=C(Nc1nnc2n3c(nc(-c4ccc(Cl)cc4)c1-2)SCC3=O)c1ccccc1` gave a cell growth of 99.5% (SRB; 10 µM, NCI60 single-dose screen; relative to: untreated).
With `CCN(CC)CCNC(=O)c1c(C)[nH]c(/C=C2\C(=O)N(C)c3ccc(F)cc32)c1C` the phospho-ACC level was 97.1% (item: ACC phospho-Ser79; 5.0 µM, 2 h, glucose-free medium, with: 12 mM 2-deoxyglucose; relative to: DMSO).
The growth percent of `CCCCN1CCN(c2ccc3[nH]c(-c4ccc5[nH]c(-c6ccc(OCC)cc6)nc5c4)nc3c2)CC1` is reported as -29.1% (SRB; 10 µM, 48 h).
`Cc1cc(C)n(C(=S)[S][Au][PH](CCCCCC[PH]([Au][S]C(=S)n2nc(C)cc2C)(c2ccccc2)c2ccccc2)(c2ccccc2)c2ccccc2)n1` has a log10 TGI of -5.24 (cell growth, NCI-60 screen; leukemia).
`CCOC(=O)CSc1nc(-c2ccc(Cl)cc2)c2c(NC(=O)c3ccccc3)nnc-2[nH]1` gave a cell growth of 82.6% (SRB; 10 µM, NCI60 single-dose screen; relative to: untreated).
`Cc1n[nH]c(C)c1CSc1ccc(O)cc1` has a selectivity index of 1.4 (cytotoxicity; relative to: IC50 HEK293 over IC50 K562).
For `COc1ccc(OCc2ccc([N+](=O)[O-])cc2)cc1-c1c[nH]c2ncc(-c3cncc(C(=O)N(C)C)c3)cc12`, the GI50 was 0.216 µM (cell growth; hypoxia 1% O2).
With `C#C[C@@]1(O)[C@@H](CO)O[C@@H](n2cc(Br)c3c(N)ncnc32)[C@@H]1O` the TGI was greater than 100 µM (SRB; NCI-60 screen).
The cell growth of `Cc1cc(-c2ccccc2)n(-c2nc(-c3ccc(Cl)cc3)c3c(NC(=O)c4ccccc4)nnc-3[nH]2)n1` is reported as 94% (SRB; 10 µM, NCI60 single-dose screen; relative to: untreated).
The growth percent of `CCOc1ccc(-c2nc3cc(-c4nc5cc(N6CCN(C)CC6)ccc5[nH]4)ccc3[nH]2)cc1OCC` is reported as 12.8% (SRB; 10 µM, 48 h).
For `C#C[C@@]1(O)[C@@H](CO)O[C@@H](n2ccc3c(N)ncnc32)[C@@H]1O`, the TGI was greater than 100 µM (SRB; NCI-60 screen).
For `Cc1cc(=O)[nH]c(=O)n1Cc1cn(-c2cc3ccccc3oc2=O)nn1`, the growth percentage was 94.9% (NCI60 single-dose screen; 10 µM).
Under protein level, `CCc1ccccc1-n1nc(C)c(C(=O)Nc2ccc3ccccc3n2)c1C` is recorded as “decreased” (western blot, item: β-catenin; concentration not given; relative to: control).
With `Cn1cncc1C1=CN(c2ncnc3[nH]cnc23)CCS1` the TGI was greater than 200 µM (leukemia).
With `C#C[C@@]1(O)[C@@H](CO)O[C@@H](n2cc(F)c3c(N)ncnc32)[C@@H]1O` the TGI was greater than 100 µM (SRB; NCI-60 screen).
For `C[C@H]1[C@@H](O)O[C@@H]2O[C@@]3(C)CC[C@H]4[C@H](C)CC[C@@H]1[C@@]24OO3`, “early apoptotic cells” read 4.1% (annexin V/PI flow cytometry, item: annexin V+/PI-; 3.2 µM, 24 h).
`CCCN1CCN(c2ccc3nc(-c4ccc5nc(-c6cc(OC)ccc6OC)[nH]c5c4)[nH]c3c2)CC1` has a growth percent of -45.3% (SRB; 10 µM, 48 h).
`Cc1cc(=O)[nH]n1-c1nc(-c2ccc(Cl)cc2)c2c(NC(=O)c3ccccc3)nnc-2[nH]1` gave a cell growth of 89.5% (SRB; 10 µM, NCI60 single-dose screen; relative to: untreated).
The growth percentage of `Cc1cc(=O)[nH]c(=O)n1Cc1cn(-c2c3ccccc3nc3ccccc23)nn1` is reported as 7.1% (NCI60 single-dose screen; 10 µM).
With `Cc1cc(C)n(-c2nc(-c3ccc(Cl)cc3)c3c(NC(=O)c4ccccc4)nnc-3[nH]2)n1` the cell growth was 105% (SRB; 10 µM, NCI60 single-dose screen; relative to: untreated).
`CCCN1CCN(c2ccc3[nH]c(-c4ccc5[nH]c(-c6ccc(C(F)(F)F)cc6)nc5c4)nc3c2)CC1` gave a growth percent of -51.4% (SRB; 10 µM, 48 h).
For `O=C1NC(c2ccccc2)(c2ccccc2)C(=O)N1Cc1cn(-c2cc3ccccc3oc2=O)nn1`, the growth percentage was 92.4% (NCI60 single-dose screen; 10 µM).
For `CCCCN1CCN(c2ccc3[nH]c(-c4ccc5[nH]c(-c6ccc(OCC)c(OCC)c6)nc5c4)nc3c2)CC1`, the growth percent was -37.1% (SRB; 10 µM, 48 h).
With `O=c1ccn(Cc2cn(-c3c4ccccc4nc4ccccc34)nn2)c(=O)[nH]1` the growth percentage was 33.1% (NCI60 single-dose screen; 10 µM).

Some of these lines once more:
`CCCN1CCN(c2ccc3nc(-c4ccc5nc(-c6cc(OC)ccc6OC)[nH]c5c4)[nH]c3c2)CC1` has a growth percent of -45.3% (SRB; 10 µM, 48 h).
`Cc1cc(=O)[nH]n1-c1nc(-c2ccc(Cl)cc2)c2c(NC(=O)c3ccccc3)nnc-2[nH]1` gave a cell growth of 89.5% (SRB; 10 µM, NCI60 single-dose screen; relative to: untreated).
The growth percentage of `Cc1cc(=O)[nH]c(=O)n1Cc1cn(-c2c3ccccc3nc3ccccc23)nn1` is reported as 7.1% (NCI60 single-dose screen; 10 µM).
With `Cc1cc(C)n(-c2nc(-c3ccc(Cl)cc3)c3c(NC(=O)c4ccccc4)nnc-3[nH]2)n1` the cell growth was 105% (SRB; 10 µM, NCI60 single-dose screen; relative to: untreated).
